Experimental data from different studies.
Parts stem from different laboratories: compare values within a part only.
UniProt P35590, sequence (whole entry, looked up): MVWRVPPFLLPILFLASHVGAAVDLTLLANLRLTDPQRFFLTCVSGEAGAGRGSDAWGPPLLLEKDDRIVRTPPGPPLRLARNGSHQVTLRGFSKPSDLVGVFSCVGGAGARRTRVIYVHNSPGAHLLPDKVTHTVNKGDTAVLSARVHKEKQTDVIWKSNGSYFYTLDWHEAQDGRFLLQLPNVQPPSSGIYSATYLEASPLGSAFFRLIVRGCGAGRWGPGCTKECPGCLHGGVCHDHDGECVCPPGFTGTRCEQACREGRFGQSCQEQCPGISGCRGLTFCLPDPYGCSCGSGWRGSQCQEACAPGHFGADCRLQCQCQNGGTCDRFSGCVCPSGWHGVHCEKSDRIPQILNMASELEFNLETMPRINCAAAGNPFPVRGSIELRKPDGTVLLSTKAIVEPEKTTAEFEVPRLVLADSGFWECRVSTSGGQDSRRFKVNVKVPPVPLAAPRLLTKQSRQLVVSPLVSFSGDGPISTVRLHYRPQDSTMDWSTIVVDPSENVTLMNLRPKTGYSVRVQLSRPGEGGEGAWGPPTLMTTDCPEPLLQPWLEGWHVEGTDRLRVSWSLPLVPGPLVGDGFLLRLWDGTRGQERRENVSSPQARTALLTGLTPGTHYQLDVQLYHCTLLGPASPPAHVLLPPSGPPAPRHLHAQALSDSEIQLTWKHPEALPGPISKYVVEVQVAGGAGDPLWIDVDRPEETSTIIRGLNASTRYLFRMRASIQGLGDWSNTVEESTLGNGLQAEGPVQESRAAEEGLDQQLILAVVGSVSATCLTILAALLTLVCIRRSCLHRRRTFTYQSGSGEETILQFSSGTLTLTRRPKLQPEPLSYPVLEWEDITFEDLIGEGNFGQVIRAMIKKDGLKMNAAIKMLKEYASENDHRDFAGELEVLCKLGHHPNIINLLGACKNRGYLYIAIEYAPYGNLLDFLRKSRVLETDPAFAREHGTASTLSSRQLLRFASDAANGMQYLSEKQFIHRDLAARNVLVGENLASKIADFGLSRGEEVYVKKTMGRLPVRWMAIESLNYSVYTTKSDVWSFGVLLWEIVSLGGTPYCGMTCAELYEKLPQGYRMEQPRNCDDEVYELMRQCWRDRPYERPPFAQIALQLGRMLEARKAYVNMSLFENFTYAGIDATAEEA
UniProt P23458, sequence (whole entry, looked up): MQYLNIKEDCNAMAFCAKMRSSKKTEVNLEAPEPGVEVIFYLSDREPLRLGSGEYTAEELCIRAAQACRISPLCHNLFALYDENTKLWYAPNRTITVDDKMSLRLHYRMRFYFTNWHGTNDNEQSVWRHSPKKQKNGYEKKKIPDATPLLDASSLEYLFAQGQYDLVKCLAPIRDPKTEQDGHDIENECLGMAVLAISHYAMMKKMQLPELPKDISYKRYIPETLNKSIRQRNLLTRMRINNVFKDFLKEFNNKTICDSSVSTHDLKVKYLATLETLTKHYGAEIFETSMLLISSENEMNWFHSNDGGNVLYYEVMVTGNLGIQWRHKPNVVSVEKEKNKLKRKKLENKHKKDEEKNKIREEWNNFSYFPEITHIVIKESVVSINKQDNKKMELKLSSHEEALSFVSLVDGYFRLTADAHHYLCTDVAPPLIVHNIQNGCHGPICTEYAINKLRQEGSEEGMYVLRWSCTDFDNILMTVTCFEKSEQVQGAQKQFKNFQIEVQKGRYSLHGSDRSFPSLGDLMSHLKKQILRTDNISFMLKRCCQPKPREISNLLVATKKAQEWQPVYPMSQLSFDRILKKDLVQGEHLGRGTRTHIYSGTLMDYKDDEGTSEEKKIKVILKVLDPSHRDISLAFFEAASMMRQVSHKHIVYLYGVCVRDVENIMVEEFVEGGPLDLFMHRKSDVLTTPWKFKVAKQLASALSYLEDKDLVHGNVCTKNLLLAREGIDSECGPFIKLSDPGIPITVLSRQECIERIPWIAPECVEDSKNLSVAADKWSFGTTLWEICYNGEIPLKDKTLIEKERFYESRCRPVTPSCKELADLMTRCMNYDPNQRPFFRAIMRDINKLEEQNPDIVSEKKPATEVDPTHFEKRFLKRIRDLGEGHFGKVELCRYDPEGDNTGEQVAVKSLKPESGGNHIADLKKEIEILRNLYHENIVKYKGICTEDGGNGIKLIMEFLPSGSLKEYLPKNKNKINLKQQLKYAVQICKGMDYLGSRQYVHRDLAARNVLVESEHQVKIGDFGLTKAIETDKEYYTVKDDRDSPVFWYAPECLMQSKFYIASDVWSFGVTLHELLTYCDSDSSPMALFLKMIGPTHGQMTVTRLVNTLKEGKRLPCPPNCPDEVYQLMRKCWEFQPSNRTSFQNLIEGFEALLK
UniProt Q9UKI8, sequence (whole entry, looked up): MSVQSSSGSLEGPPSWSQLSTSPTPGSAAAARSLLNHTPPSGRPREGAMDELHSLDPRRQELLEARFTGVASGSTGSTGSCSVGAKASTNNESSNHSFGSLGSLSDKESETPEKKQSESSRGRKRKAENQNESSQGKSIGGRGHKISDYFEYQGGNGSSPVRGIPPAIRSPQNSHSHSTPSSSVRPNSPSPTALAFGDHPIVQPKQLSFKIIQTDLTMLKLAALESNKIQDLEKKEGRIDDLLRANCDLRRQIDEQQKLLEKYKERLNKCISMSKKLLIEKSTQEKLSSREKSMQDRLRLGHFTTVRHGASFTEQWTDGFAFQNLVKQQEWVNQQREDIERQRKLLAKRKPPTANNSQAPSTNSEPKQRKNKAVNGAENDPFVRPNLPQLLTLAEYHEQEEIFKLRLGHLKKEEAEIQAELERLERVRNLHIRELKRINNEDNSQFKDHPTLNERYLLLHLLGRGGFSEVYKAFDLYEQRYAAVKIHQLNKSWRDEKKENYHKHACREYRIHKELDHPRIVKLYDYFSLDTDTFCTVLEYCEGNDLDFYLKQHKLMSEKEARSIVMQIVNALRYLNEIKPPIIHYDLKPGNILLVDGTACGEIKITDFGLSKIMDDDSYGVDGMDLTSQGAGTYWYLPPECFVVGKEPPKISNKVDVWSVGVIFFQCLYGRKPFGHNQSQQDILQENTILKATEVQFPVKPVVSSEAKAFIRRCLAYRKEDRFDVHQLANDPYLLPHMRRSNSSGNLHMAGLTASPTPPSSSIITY

Study 1 — effect on: cell-free assay; technique: competition with immobilised ligand; tested at: 1 µM
SMILES: COc1cccc(CNC(=O)c2nc3scc(COCc4ccc(C(=O)O)cc4)c3c(=O)[nH]2)c1
| target | remaining binding |
| --- | --- |
| MAPK13 (Homo sapiens, UniProt O15264) | 100% |
| Tyrosine-protein kinase ABL1, phosphorylated (ABL1, Homo sapiens, UniProt P00519, T315I) | 77.5% |
| COQ8B (Homo sapiens, UniProt Q96D53) | 93.8% |
| GRK7 (Homo sapiens, UniProt Q8WTQ7) | 67% |
| MINK1 (Homo sapiens, UniProt Q8N4C8) | 74.9% |
| CDK16 (Homo sapiens, UniProt Q00536) | 91.9% |
| MAP3K10 (Homo sapiens, UniProt Q02779) | 100% |
| FGFR3 (Homo sapiens, UniProt P22607, G697C) | 80.2% |
| CLK3 (Homo sapiens, UniProt P49761) | 100% |
| Cyclin-dependent kinase 4, with cyclin D1 (CDK4, Homo sapiens, UniProt P11802) | 61.7% |
| OXSR1 (Homo sapiens, UniProt O95747) | 71.9% |
| Myosin-IIIa (MYO3A, Homo sapiens, UniProt Q8NEV4) | 88% |
| HUNK (Homo sapiens, UniProt P57058) | 100% |
| PAK6 (Homo sapiens, UniProt Q9NQU5) | 100% |
| TIE1 (Homo sapiens, UniProt P35590) | 100% |
| Tyrosine-protein kinase JAK1, JH1 (JAK1, Homo sapiens, UniProt P23458) | 93.9% |
| PRKCH (Homo sapiens, UniProt P24723) | 83.7% |
| TLK1 (Homo sapiens, UniProt Q9UKI8) | 100% |
| PIK3CA (Homo sapiens, UniProt P42336, C420R) | 100% |
| MAP2K3 (Homo sapiens, UniProt P46734) | 92.9% |
| MAPK7 (Homo sapiens, UniProt Q13164) | 99.3% |
| MAST1 (Homo sapiens, UniProt Q9Y2H9) | 84.4% |
| NEK9 (Homo sapiens, UniProt Q8TD19) | 98.2% |
| CASK (Homo sapiens, UniProt O14936) | 67.3% |
| RET (Homo sapiens, UniProt P07949, V804L) | 76.7% |

Study 2 — technique: RNA Bind-n-Seq; form: RNA; matrix: in vitro; tested at: 15 pmol; setting: 4-mer, random 30-nt RNA, single round; added: DMSO vehicle, 2 mM AMP-PNP; relative to: input library; reading: higher = stronger binding
Target: Eukaryotic initiation factor 4A-I (EIF4A1, Homo sapiens, UniProt P60842, residues 1-406, full length assumed)
UniProt P60842, sequence (whole entry, looked up): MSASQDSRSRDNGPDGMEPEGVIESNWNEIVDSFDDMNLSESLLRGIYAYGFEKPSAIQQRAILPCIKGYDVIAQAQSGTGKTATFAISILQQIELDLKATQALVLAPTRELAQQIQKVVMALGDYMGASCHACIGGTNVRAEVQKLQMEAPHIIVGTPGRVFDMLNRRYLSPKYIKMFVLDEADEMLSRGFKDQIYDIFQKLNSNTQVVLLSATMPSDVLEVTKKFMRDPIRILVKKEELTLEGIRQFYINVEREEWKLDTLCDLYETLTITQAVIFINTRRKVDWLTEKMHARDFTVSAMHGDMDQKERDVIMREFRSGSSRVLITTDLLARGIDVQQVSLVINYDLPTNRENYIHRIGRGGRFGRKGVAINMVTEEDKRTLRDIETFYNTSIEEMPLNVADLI
| Oligonucleotide | 4-mer enrichment |
| --- | --- |
| AGUU | 0.794 fold |
| GGGA | 1.08 fold |
| CCGU | 1.31 fold |
| UUGC | 0.939 fold |
| CCAU | 1.59 fold |
| GUGA | 0.939 fold |
| UCGA | 0.667 fold |
| UGAU | 0.902 fold |

Study 3 — effect on: enzyme activity; mode: inhibitor; tested at: 0.5 µM; relative to: control
Target: SRSF protein kinase 3 (SRPK3, Homo sapiens, UniProt Q9UPE1)
UniProt Q9UPE1, sequence (whole entry, looked up): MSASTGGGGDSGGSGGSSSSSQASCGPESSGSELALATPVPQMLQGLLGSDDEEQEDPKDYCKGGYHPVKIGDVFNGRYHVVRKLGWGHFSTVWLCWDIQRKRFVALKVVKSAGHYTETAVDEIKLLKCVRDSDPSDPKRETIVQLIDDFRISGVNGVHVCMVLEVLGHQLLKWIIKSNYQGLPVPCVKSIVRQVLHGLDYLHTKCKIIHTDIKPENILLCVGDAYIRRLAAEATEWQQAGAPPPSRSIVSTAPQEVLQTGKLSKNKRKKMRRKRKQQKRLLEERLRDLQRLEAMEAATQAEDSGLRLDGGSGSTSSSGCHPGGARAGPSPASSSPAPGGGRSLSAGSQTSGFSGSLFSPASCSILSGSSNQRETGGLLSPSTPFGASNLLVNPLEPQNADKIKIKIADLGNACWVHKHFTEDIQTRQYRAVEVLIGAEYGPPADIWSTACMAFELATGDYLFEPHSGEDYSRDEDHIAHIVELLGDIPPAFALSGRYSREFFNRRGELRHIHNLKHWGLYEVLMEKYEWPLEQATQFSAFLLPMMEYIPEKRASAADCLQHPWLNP
| Compound | remaining activity [%] |
| --- | --- |
| CCOC(=O)c1c(C)[nH]c(/C=C2\C(=O)Nc3ccccc32)c1C | 88.8 |
| C#Cc1cccc(Nc2ncnc3cc(OCCOC)c(OCCOC)cc23)c1 | 101 |
| CN(C)c1ccc(C=C2C(=O)Nc3ccccc32)cc1 | 98.7 |
| COc1ccc(CNC(=O)Nc2ncc([N+](=O)[O-])s2)cc1 | 100 |
| O=S(=O)(c1cccc2cnccc12)N1CCCNCC1 | 96.4 |
| OCC(O)CCON=C1C(c2c(O)[nH]c3ccccc23)=Nc2ccccc21 (stereo not drawn) | 59.5 |
| COc1ccc(C(=O)Nc2sc3c(c2C(N)=O)CCCC3)cc1OC | 92 |
| CC(C)[C@H](CO)Nc1nc(Nc2cc(N)cc(Cl)c2)c2ncn(C(C)C)c2n1 | 37.7 |
| O=C1NC(=O)C(c2cn(CCCn3ccnc3)c3ccccc23)=C1Nc1ccccc1 | 92.5 |
| COc1cc2ncnc(Nc3ccc(F)c(Cl)c3)c2cc1OCCCN1CCOCC1 | 103 |
| Oc1ccc(-c2nc(-c3ccncc3)c(-c3ccc(F)cc3)[nH]2)cc1 | 95.9 |
| COc1cc2ncnc(Nc3ccc(Oc4ccccc4)cc3)c2cc1OC | 94.8 |
| Cc1ccc(Nc2nccc(N(C)c3ccc4c(C)n(C)nc4c3)n2)cc1S(N)(=O)=O | 102 |
| CNC(=O)c1cc(Oc2ccc(NC(=O)Nc3ccc(Cl)c(C(F)(F)F)c3)cc2)ccn1 | 88.4 |
| Cn1sc(=O)n(Cc2ccccc2)c1=O | 97.3 |
| Cc1nc(-c2ccccc2)c(-c2ccncc2)o1 | 103 |

Study 4 — technique: universal PBM; form: double-stranded DNA, one strand shown; matrix: in vitro; tested at: 600 nM; reading: higher = stronger binding
Target: Sal-like protein 4, full length isoform A (SALL4, Homo sapiens, UniProt Q9UJQ4, residues 1-1053)
UniProt Q9UJQ4, sequence (whole entry, looked up): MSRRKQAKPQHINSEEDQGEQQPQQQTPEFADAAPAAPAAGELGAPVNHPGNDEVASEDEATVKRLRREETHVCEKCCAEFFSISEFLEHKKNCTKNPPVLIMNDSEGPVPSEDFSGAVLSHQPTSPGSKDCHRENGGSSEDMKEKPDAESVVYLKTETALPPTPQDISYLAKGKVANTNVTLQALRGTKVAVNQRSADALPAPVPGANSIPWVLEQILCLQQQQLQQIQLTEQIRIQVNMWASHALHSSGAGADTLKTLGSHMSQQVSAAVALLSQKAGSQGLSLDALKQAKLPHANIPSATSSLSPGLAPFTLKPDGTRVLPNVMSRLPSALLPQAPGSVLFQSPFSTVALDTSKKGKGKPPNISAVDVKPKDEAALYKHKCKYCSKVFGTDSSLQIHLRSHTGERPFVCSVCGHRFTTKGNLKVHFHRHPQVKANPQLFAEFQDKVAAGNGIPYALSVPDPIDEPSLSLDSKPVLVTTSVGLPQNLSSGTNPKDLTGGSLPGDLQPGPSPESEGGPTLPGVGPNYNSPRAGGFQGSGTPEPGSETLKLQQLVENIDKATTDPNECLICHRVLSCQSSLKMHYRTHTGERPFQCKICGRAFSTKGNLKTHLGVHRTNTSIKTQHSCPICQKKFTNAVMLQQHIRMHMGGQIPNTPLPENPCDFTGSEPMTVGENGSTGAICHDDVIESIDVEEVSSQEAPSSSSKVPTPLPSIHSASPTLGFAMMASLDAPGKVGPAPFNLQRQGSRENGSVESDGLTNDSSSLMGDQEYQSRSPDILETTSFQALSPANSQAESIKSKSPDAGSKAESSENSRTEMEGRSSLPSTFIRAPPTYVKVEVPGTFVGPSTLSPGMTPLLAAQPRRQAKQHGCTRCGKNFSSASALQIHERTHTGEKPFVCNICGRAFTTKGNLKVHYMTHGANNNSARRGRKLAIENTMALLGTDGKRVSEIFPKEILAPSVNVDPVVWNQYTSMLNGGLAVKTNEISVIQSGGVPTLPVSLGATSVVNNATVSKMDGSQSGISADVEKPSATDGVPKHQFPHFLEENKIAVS
Setting: 8-mer, flanks averaged, mean of replicates
| Oligonucleotide | E-score |
| --- | --- |
| GATAACGC | -0.0586 |
| TATTCTAA | 0.328 |
| ATTCTTCA | 0.155 |
| CATTAAAG | 0.209 |
| GATACCCA | -0.0885 |
| GCGCTTTA | 0.0294 |
| CACCTCCG | -0.238 |
| ACAAAATC | 0.129 |
